Experimental data of several laboratories.
Each line is one published result; not all experiments were run side by side. “And” joins repeats or separate records; there may be more than shown. ± gives the spread as reported.
CYP2C9: Cytochrome P450 2C9 (CYP2C9, Homo sapiens, UniProt P11712)
UniProt P11712, sequence (whole entry, looked up): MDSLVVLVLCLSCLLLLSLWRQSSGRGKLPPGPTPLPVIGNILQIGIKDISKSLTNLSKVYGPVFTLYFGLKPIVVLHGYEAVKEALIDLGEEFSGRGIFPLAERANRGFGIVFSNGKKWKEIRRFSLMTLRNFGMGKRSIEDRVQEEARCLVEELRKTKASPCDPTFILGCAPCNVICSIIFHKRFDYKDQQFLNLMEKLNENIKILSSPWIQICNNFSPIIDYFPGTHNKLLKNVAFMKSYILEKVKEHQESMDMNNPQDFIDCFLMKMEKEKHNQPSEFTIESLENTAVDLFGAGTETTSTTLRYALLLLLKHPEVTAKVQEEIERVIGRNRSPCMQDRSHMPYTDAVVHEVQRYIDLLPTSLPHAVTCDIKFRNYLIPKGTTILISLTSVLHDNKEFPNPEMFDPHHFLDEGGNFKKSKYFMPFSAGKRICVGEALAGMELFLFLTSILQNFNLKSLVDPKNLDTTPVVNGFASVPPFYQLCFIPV
UniProt P40261, sequence (whole entry, looked up): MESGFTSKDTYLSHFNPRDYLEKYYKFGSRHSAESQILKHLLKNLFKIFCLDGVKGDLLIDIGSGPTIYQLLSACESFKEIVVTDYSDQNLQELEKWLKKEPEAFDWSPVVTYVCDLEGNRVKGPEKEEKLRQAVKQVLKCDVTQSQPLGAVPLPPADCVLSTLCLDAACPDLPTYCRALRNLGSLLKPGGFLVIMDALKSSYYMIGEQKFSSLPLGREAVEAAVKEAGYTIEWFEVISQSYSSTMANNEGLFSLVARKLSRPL
UniProt Q7Z5W3, sequence (whole entry, looked up): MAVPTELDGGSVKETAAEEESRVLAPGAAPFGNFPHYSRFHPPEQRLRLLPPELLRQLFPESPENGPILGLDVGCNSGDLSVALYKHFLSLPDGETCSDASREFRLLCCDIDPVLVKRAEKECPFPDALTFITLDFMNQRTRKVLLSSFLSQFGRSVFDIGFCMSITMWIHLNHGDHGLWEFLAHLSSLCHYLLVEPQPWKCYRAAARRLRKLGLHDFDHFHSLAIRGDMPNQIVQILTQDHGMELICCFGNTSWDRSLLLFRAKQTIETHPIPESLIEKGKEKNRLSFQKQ
UniProt C7C422, sequence (whole entry, looked up): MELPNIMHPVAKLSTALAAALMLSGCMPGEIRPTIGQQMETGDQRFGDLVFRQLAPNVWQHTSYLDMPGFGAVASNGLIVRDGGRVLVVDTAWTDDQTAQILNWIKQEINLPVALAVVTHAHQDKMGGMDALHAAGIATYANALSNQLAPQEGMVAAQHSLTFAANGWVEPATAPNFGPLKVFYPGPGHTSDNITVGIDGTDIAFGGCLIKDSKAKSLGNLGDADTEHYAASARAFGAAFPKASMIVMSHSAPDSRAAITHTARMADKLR
UniProt Q6W5P4, sequence (whole entry, looked up): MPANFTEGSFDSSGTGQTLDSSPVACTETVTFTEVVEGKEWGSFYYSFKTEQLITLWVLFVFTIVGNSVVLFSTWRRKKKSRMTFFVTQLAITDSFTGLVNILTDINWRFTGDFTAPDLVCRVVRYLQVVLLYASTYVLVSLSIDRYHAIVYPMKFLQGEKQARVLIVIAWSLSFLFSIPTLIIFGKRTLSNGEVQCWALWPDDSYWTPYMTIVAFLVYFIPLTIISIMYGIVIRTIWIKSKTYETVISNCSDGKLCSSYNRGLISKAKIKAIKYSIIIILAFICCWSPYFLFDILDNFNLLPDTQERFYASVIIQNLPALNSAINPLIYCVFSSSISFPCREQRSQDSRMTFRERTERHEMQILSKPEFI
UniProt P25084, sequence (whole entry, looked up): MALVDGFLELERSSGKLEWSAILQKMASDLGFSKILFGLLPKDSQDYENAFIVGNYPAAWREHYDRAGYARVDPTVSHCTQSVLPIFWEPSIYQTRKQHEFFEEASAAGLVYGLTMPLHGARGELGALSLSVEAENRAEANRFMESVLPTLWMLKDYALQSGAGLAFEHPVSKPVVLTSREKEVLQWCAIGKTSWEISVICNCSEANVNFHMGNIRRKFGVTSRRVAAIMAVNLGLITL
UniProt Q9FIP9, sequence (whole entry, looked up): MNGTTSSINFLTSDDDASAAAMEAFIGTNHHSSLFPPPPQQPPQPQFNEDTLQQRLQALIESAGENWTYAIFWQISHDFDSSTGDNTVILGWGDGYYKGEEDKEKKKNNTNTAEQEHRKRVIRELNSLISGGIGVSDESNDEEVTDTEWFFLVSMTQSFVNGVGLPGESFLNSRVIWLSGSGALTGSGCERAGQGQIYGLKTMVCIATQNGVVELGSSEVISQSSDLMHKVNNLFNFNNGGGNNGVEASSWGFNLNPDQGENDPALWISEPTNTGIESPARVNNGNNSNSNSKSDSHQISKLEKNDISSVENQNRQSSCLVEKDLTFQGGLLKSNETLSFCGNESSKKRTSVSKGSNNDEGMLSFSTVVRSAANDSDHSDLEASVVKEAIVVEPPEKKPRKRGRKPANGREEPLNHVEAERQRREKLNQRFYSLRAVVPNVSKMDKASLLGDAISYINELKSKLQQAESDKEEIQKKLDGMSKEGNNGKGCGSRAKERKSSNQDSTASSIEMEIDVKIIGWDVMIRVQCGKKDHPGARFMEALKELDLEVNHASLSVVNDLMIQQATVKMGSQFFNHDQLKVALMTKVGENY
UniProt O75884, sequence (whole entry, looked up): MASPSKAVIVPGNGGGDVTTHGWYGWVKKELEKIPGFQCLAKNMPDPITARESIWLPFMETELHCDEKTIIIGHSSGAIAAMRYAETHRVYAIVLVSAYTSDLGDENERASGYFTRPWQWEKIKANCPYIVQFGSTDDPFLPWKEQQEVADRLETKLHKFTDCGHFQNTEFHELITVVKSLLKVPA
UniProt P32300, sequence (whole entry, looked up): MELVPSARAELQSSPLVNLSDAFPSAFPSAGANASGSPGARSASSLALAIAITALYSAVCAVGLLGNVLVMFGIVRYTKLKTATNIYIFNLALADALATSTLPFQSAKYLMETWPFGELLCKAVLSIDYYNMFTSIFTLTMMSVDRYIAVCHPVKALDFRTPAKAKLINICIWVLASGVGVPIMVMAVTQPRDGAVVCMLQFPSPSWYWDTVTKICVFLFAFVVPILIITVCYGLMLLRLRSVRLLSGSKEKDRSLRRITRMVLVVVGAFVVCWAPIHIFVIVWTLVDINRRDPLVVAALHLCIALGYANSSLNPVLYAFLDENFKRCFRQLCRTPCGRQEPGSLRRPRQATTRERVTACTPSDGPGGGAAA
UniProt Q08499, sequence (whole entry, looked up): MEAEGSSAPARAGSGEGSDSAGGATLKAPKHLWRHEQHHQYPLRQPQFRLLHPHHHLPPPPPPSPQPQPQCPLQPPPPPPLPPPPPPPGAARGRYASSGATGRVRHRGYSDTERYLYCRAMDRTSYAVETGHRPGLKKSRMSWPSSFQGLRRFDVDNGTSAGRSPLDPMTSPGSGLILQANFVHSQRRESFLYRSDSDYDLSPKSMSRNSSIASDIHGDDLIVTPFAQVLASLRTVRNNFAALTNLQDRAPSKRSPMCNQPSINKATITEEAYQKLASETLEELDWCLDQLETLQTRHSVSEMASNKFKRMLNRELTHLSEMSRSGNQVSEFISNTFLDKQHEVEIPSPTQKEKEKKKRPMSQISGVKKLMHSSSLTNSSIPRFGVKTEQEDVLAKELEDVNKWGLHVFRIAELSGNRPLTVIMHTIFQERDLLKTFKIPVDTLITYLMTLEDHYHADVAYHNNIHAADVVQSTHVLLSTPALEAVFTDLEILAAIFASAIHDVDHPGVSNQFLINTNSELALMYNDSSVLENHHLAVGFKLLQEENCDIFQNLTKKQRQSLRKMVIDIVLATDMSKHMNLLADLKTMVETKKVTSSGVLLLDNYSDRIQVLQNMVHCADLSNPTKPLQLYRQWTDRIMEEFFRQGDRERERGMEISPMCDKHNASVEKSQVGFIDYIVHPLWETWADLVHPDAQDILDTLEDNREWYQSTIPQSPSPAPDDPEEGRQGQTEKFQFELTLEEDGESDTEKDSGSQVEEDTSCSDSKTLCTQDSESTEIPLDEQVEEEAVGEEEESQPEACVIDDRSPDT
UniProt P53350, sequence (whole entry, looked up): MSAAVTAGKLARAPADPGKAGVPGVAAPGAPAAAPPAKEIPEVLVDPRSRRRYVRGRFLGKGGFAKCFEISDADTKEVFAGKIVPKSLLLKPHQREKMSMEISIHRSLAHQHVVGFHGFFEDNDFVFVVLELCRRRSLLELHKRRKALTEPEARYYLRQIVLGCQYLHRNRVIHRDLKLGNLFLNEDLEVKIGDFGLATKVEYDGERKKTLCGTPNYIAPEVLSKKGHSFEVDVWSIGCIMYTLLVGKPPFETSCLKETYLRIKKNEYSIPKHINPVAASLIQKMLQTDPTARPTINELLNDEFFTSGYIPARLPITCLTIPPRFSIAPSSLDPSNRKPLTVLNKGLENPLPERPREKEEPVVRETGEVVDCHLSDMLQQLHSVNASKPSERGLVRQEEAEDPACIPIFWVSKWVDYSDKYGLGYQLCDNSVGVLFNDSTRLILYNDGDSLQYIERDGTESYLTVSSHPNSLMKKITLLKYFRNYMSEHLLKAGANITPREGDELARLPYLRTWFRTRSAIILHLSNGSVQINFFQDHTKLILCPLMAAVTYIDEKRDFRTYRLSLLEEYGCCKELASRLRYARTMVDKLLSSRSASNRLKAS
UniProt P26718, sequence (whole entry, looked up): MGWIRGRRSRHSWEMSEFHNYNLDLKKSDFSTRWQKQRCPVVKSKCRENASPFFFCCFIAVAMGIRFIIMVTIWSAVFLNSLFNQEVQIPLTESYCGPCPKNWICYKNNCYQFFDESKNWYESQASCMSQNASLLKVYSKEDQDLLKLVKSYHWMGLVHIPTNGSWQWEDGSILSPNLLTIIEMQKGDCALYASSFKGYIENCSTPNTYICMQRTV

Nc1nc2nc3nc(N)sc3cc2s1  IC50 (Genome polyprotein, 3C protease (Human hepatitis A virus genotype IB, UniProt P08617); enzyme activity, inhibitor): 0.9 ± 0.1 µM
CN(C)C(=O)[C@@H](NC(=O)c1cc(-c2ccnn2C)ccc1-c1ccc(C(F)(F)F)cc1)c1cccc(C(F)(F)F)c1  IC50 (NKG2-D type II integral membrane protein, with ULBP6 (KLRK1, Homo sapiens, UniProt P26718); ligand binding, inhibitor, TR-FRET; HEK293 expressing NKG2D and DAP10; added: ULBP6-AF647): 0.7 ± 0.3 µM
N[C@@H](CC(=O)O)C(=O)N[C@@H](Cc1ccccc1)B(O)O  IC50 (Serine hydrolase RBBP9 (Homo sapiens, UniProt O75884); enzyme activity, inhibitor): 1.08 µM
COC1CC(=O)N(C)C=CCCCC(=O)N(C)C(C(C)C)C(=O)N(C)C(CC(C)C)C(=O)OC(C(C)C)CC(C)C1 (centres unmarked)  IC50 (Neuropeptide S receptor, isoform B (NPSR1, Homo sapiens, UniProt Q6W5P4); β-arrestin recruitment, antagonist; U2OS; 30 min): 20 µM
CN(C)C(=O)C1CN1S(=O)(=O)c1ccc(F)cc1F (centres unmarked)  IC50 (PDIA3 (Homo sapiens, UniProt P30101); enzyme activity, inhibitor, absorbance; pH 7.6): 24.6 µM
N#C[C@@]1(c2ccc3c(N)ncnn23)O[C@H](COP(=O)(O)OP(=O)(O)OP(=O)(O)O)[C@@H](O)[C@H]1O  IC50 (POLG (Homo sapiens, UniProt P54098); enzyme activity, inhibitor): > 200 µM
O=C1C=C(Br)/C(=C/Br)O1  IC50 (lasR (Pseudomonas aeruginosa, UniProt P25084); reporter gene, antagonist; PAO-JP2 plasI-LVAgfp; added: OdDHL 150 nM): no inhibition
CC[C@H](C)[C@@H]1NC(=O)CNC(=O)[C@H](Cc2ccccc2)NC(=O)[C@H](C)NC(=O)[C@H](CCCCN)NC(=O)[C@@H]2CCCN2C(=O)[C@@H](Cc2ccc(O)cc2)NC(=O)CSC[C@@H](C(=O)NCC(N)=O)NC(=O)[C@H](CC(C)C)NC(=O)[C@H](CC(C)C)NC(=O)[C@H](CC(C)C)NC(=O)[C@H](Cc2ccccc2)NC(=O)[C@H](CCCNC(=N)N)NC(=O)[C@H](CC(=O)O)NC(=O)[C@H](CCCNC(=N)N)NC(=O)[C@H](Cc2ccccc2)NC(=O)[C@H](CCCCN)NC1=O  IC50 (NNMT (Homo sapiens, UniProt P40261); enzyme activity, inhibitor, mass spectrometry): 6.24 µM and ~5 µM
CCn1nnc(-c2cccc(NC(=O)[C@H](C)CS)c2)n1  IC50 (Metallo-beta-lactamase type 2 (Serratia marcescens, UniProt P52699); inhibitor; 10 min preincubation, added: FC5 substrate): 6.23 µM
Clc1cc2oc3cc(Cl)c(Cl)cc3c2cc1Cl  IC50 (Aryl hydrocarbon receptor (AHR, Delphinapterus leucas, UniProt Q95LD9); competitive binding, hydroxyapatite binding; pH 7.5, added: 2 nM [3H]TCDD): 0.00135 µM
CC(C)=CCc1c(O)ccc(-c2coc3cc(O)cc(O)c3c2=O)c1O  IC50 (PDE4D (Homo sapiens, UniProt Q08499); enzyme activity, inhibitor, radiometric): 1.77 µM
CCCCCc1cc(O)c2c(c1)OC(C)(C)C1CCC(C(=O)OC3OC(C(=O)O)C(O)C(O)C3O)=CC21 (centres unmarked)  IC50 (CYP2C9; inhibitor; 30 min preincubation without NADPH): 15 ± 2.4 µM
Cc1cccc(-c2nc(Nc3ccncn3)c3sccc3n2)n1  IC50 (CYP2C9; inhibitor): 26 µM
Nc1ncnc2c1ncn2[C@@H]1O[C@H](CSCCNC(=O)NCC2CCCCC2)[C@@H](O)[C@H]1O  IC50 (BCDIN3D (Homo sapiens, UniProt Q7Z5W3); enzyme activity, inhibitor, radiometric): > 50 µM
CC(C)C[C@H](NC(=O)[C@H](CCCNC(=N)N)NC(=O)[C@H](CCC(=O)O)NC(=O)[C@H](CCCCN)NC(=O)[C@H](CCCNC(=N)N)NC(=O)[C@H](CCCCN)NC(=O)[C@H](CCC(=O)O)NC(=O)[C@H](CC(C)C)NC(=O)[C@H](Cc1ccccc1)NC(=O)[C@H](CCCNC(=N)N)NC(=O)[C@H](C)NC(=O)[C@H](CC(C)C)NC(=O)[C@H](CO)NC(=O)[C@H](C)NC(=O)[C@H](CCCCN)NC(=O)[C@H](CCCNC(=N)N)NC(=O)[C@H](C)NC(=O)[C@H](CCC(N)=O)NC(=O)[C@@H]1CCCN1C(=O)[C@@H](NC(=O)[C@H](CO)NC(=O)c1ccc2c(c1)C(=O)OC21c2ccc(N(C)C)cc2Oc2cc(N(C)C)ccc21)C(C)C)C(=O)O  IC50 (Transcription factor MYC3 (MYC3, Arabidopsis thaliana, UniProt Q9FIP9); JAZ9 peptide binding, inhibitor, AlphaScreen; pH 8.0, 25 °C, added: 50 nM biotin-JAZ9 peptide): 37 ± 10 µM
CC(C)[C@H](NC(=O)[C@@H]1CCNC(=O)NCCCC[C@@H](NC(=O)[C@@H](N)Cc2ccc(O)cc2)C(=O)NCC(=O)N[C@@H](Cc2ccccc2)C(=O)N1)C(=O)N[C@H](C(=O)NCC(=O)NCCNC(N)=O)C(C)C  IC50 (Oprd1 (Mus musculus, UniProt P32300); contraction inhibition, agonist; mouse, isolated vas deferens): 0.0169 ± 0.0005 µM
CC[C@@H]1C(=O)N(C)c2cnc(Nc3ccc(C(=O)NCCCC[C@H](NC(C)=O)C(=O)NCCOCCOCC(=O)NCCOCCOCC(=O)NCCOCCOCC(=O)N4CCC[C@H]4C(=O)N[C@@H](CC(C)C)C(=O)N[C@@H](Cc4cncn4CCCCCCCCc4ccccc4)C(=O)N[C@@H](CO)C(=O)N[C@H](C(N)=O)[C@@H](C)OP(=O)(O)O)cc3OC)nc2N1C1CCCC1  IC50 (PLK1 (Homo sapiens, UniProt P53350); enzyme activity, inhibitor): 0.0013 ± 0.00013 µM
O=C(COc1ccc2c(c1O)C(=O)c1ccccc1C2=O)c1ccccc1  IC50 (Gag-Pol polyprotein, reverse transcriptase RNase H (gag-pol, Human immunodeficiency virus 1, UniProt P03366, Y780C); polymerase-independent RNase H cleavage; Y181C reverse transcriptase): > 100 µM
CC[C@H](C)[C@H](NC(=O)[C@H](CCC(N)=O)NC(=O)[C@@H](NC(=O)[C@H](CO)NC(=O)CNC(=O)[C@H](CC(C)C)NC(=O)[C@@H](N)Cc1ccccc1)C(C)C)C(=O)N[C@@H](CCCNC(=N)N)C(=O)N[C@H](C(=O)O)C(C)C  IC50 (HLA class I histocompatibility antigen, A alpha chain, allele A*02:01 (Homo sapiens, UniProt P04439)): < 5.01 µM
COC(=O)C=CCCC(NC(=O)c1ccncc1C(=O)O)C(=O)NC(C(=O)N1CC(=O)CC1C(=O)NC(C(=O)NC(C(N)=O)C1CCCCC1)C1CCCCC1)C(C)(C)C (centres unmarked)  IC50 (Coagulation factor XIII A chain (Canis lupus familiaris, UniProt A0A8I3S1X8); transamidation activity, inhibitor; dog enzyme, added: dansylcadaverine into N,N-dimethylcasein): 0.024 ± 0.0006 µM
C[C@H](CS)C(=O)Nc1ccccc1-c1nnn(Cc2ccccc2)n1  IC50 (blaNDM-1 (Klebsiella pneumoniae, UniProt C7C422); enzyme activity, inhibitor, fluorescence; with preincubation): 1.46 µM
COc1ccc(F)cc1S(=O)(=O)Nc1cnc2c(c1)C(=O)NCCO2  IC50 (Cytochrome P450 2C8 (CYP2C8, Homo sapiens, UniProt P10632); enzyme activity, inhibitor; human, liver microsomes; with preincubation): > 100 µM
CC(=O)[O][Cu+].CN1CCN2CCN(C)CCN(CC1)CC2  IC50 (CXCR4 (Homo sapiens, UniProt P61073); ligand displacement, flow cytometry): 0.0168 µM

Excerpt of the above:
CC[C@H](C)[C@H](NC(=O)[C@H](CCC(N)=O)NC(=O)[C@@H](NC(=O)[C@H](CO)NC(=O)CNC(=O)[C@H](CC(C)C)NC(=O)[C@@H](N)Cc1ccccc1)C(C)C)C(=O)N[C@@H](CCCNC(=N)N)C(=O)N[C@H](C(=O)O)C(C)C  IC50 (HLA class I histocompatibility antigen, A alpha chain, allele A*02:01 (Homo sapiens, UniProt P04439)): < 5.01 µM
CCCCCc1cc(O)c2c(c1)OC(C)(C)C1CCC(C(=O)OC3OC(C(=O)O)C(O)C(O)C3O)=CC21 (centres unmarked)  IC50 (CYP2C9; inhibitor; 30 min preincubation without NADPH): 15 ± 2.4 µM
COC1CC(=O)N(C)C=CCCCC(=O)N(C)C(C(C)C)C(=O)N(C)C(CC(C)C)C(=O)OC(C(C)C)CC(C)C1 (centres unmarked)  IC50 (Neuropeptide S receptor, isoform B (NPSR1, Homo sapiens, UniProt Q6W5P4); β-arrestin recruitment, antagonist; U2OS; 30 min): 20 µM
